Published values collected from several papers.
Each line is one published result; not all experiments were run side by side. “And” joins repeats or separate records; there may be more than shown. Numbers after ± are the reported error.

Under “hepatic total cholesterol”, C[C@H]1O[C@@H](O[C@H]2CC[C@@]3(C)[C@@H](CC[C@]4(C)[C@@H]3C=C[C@]35OC[C@@]6(CCC(C)(C)C[C@H]63)[C@@H](O)C[C@]54C)[C@]2(C)CO)[C@H](O)[C@@H](O[C@@H]2O[C@H](CO)[C@@H](O)[C@H](O)[C@H]2O)[C@H]1O is recorded as 0.144 mmol/g protein and 0.117 mmol/g protein and 0.127 mmol/g protein and 0.125 mmol/g protein and 0.168 mmol/g protein and 0.129 mmol/g protein (Mus musculus, chronic-plus-binge ethanol-fed, liver; oral, 10 mg/kg/day, 168 h, dosed for 7 days).
The hepatic clearance of O=C(Nc1ccc(C2CCCCC2)cc1)[C@H]1CC1(F)F is reported as 7.1 mL/min/kg (liver microsome stability; human liver microsomes; 1 µM, without NADPH).
c1ccc(-c2n[nH]cc2-c2ccnc3ccccc23)nc1: “log2 fold change” 1.33 (kinase binding, competitor, MIB/MS competition, measured: SAK1; Candida albicans cell lysate; 1 µM; relative to: DMSO).
C[C@H]1C[C@H]2CSC(N)=N[C@@]2(c2nc(NC(=O)c3ccc(OC(F)F)cn3)cs2)CO1 — result for “percent change from baseline”: -57.4% (measured: Aβ1-40; healthy adults, plasma; 40 mg single dose, 48 h post-dose; relative to: placebo).
CCCCC1(CCCC)CN(c2ccccc2)c2cc(SC)c(OCC(=O)N[C@@H](C(=O)NCC(=O)O)c3ccccc3)cc2S(=O)(=O)C1 gave a plasma C4 of 64.5 ng/mL (measured: 7α-hydroxy-4-cholesten-3-one; human, plasma; 5 mg once daily, day 7).
NC(=O)c1cnc2[nH]ccc2c1N[C@@H]1[C@@H]2CC3C[C@H]1C[C@@](O)(C3)C2 gave a percent change of 0.18% (CD8+ effector memory T cells, flow cytometry; Japanese humans, peripheral blood; 60 mg single dose; relative to: baseline).
With CC(C)NCC(O)c1ccc(O)c(O)c1 (centres unmarked) the sarcomere length was 1.72 µm (ventricular cardiomyocytes, C57BL/6 mouse; dose not given, 0.344 s).
For Cn1cc(Nc2nccc(-c3ccc4c(c3)CN(C3COC3)CC[C@H]4NC(=O)c3cn(C(C)(C)C)nn3)n2)cn1, “pathway activation z-score” read 0.218 (measured: Insulin Receptor Signaling; splenic B cells, mouse; in vivo, 30 mg/kg, IgD-activated B cells; relative to: vehicle, positive = activation).
CC(C)[C@H](C(=O)Nc1ccc(C(=O)NO)cc1)c1ccccc1 — result for “tumour volume change”: -19.4% (volumetric MRI; human, left foramen magnum tumour; dose not given, day 224; relative to: baseline).
CN[C@@H]1COc2c(S(=O)(=O)NC(=O)Nc3c4c(cc5c3CCC5)CCC4)cnn2C1 has an inhibition of 19.4% (measured: IL-18; human participants, whole blood ex vivo; 900 mg single dose, 336 h, IL-18, circulating, adjusted for, with: LPS/ATP; relative to: baseline).
Under “T1 relaxation time”, O=C([O-])CN1CCN(CC(=O)[O-])CCN(CC(=O)O)CCN(CC(=O)[O-])CC1.[Gd+3] is recorded as 483 ms (mouse serum; 0.3 mM, 25 °C, 7 T).
For CSCCNc1nc(SCCC(F)(F)F)nc2c1ncn2[C@@H]1O[C@H](COP(=O)(O)OP(=O)(O)C(Cl)(Cl)P(=O)(O)O)[C@@H](O)[C@H]1O, “patients with high reactivity” read 68.4% (ADP-induced platelet aggregation, LTA, >59% aggregation; human patients, platelet-rich plasma; dose not given, 4 to 6 h, with: ADP 20 µM).
For C[C@]12CC[C@@H]3c4ccc(O)cc4CC[C@H]3[C@@H]1CC[C@@H]2O, “relative mRNA level” read 0.0129 (RT-qPCR, measured: CO; Arabidopsis thaliana ING1:FLAG seedlings; dose not given, 6 h (ZT12); relative to: mock).
CCO: “maximal mean DBP decrease” 13.7 mmHg (supine; concentration not given, 0 to 4 h; relative to: baseline).
Under “share of responses”, CC(C)[C@H](NC(=O)[C@H](Cc1ccc(O)cc1)NC(=O)[C@H](Cc1ccc(O)cc1)NC(=O)[C@@H]1CCCN1C(=O)[C@H](CCC(=O)O)NC(=O)[C@H](CCC(=O)O)NC(=O)[C@H](Cc1c[nH]c2ccccc12)NC(=O)[C@@H]1CCCN1C(=O)[C@@H](NC(=O)[C@H](CCC(N)=O)NC(=O)c1ccc2c(c1)C(=O)OC21c2ccc(O)cc2Oc2cc(O)ccc21)C(C)C)C(=O)N[C@H](C(=O)N[C@@H](CCCCN)C(=O)N[C@@H](CCCCN)C(=O)N[C@@H](CO)C(=O)N[C@@H](CO)C(=O)NCC(=O)NCC(N)=O)C(C)C is recorded as 7.7% (nerve branching; human head and neck surgery, nerves; 500 mg, very much improved; relative to: white light).
Under “ear thickness difference”, CCOc1cc([C@@H](CS(C)(=O)=O)N2C(=O)c3cccc(NC(C)=O)c3C2=O)ccc1OC is recorded as -0.0958 (Balb/c mice, oxazolone atopic dermatitis; day 8, unit not given; relative to: vehicle).
C1=C/COCc2cc(ccc2OCCN2CCCC2)Nc2nccc(n2)-c2cccc(c2)COC/1 has a spleen weight of 0.173 g and 0.179 g and 0.163 g and 0.187 g and 0.199 g and 0.184 g (BALB/c mice rhEPO-induced polycythemia; 120 mg/kg).
N#Cc1ccc2c(-c3ccncc3)c(-c3ccc(F)cc3)nn2c1: “log2 fold change” -0.64 (kinase binding, competitor, MIB/MS competition, measured: CTK1; Candida albicans cell lysate; 1 µM; relative to: DMSO).
COc1cc2cc(-c3ccc(CC(=O)Nc4cc(C(C)(C)C(F)(F)F)no4)cn3)cnc2cc1OC — result for “best overall response PD”: 17% (RECIST v1.1; human RET-altered solid tumours; 12 75 mg tablets, phase I).
CC[C@H](C)[C@H](NC(=O)[C@H](Cc1ccccc1)NC(=O)[C@H](CCC(=O)O)NC(=O)[C@H](CCCCN)NC(=O)[C@H](C)NC(=O)[C@H](C)NC(=O)[C@H](CCC(N)=O)NC(=O)CNC(=O)[C@H](CCC(=O)O)NC(=O)[C@H](CC(C)C)NC(=O)[C@H](Cc1ccc(O)cc1)NC(=O)[C@H](CO)NC(=O)[C@H](CO)NC(=O)[C@@H](NC(=O)[C@H](CC(=O)O)NC(=O)[C@H](CO)NC(=O)[C@@H](NC(=O)[C@H](Cc1ccccc1)NC(=O)[C@@H](NC(=O)CNC(=O)[C@H](CCC(=O)O)NC(=O)C(C)(C)NC(=O)[C@@H](N)Cc1cnc[nH]1)[C@@H](C)O)[C@@H](C)O)C(C)C)C(=O)N[C@@H](C)C(=O)N[C@@H](Cc1c[nH]c2ccccc12)C(=O)N[C@@H](CC(C)C)C(=O)N[C@H](C(=O)N[C@@H](CCCNC(=N)N)C(=O)NCC(=O)N[C@@H](CCCNC(=N)N)C(=O)NCC(=O)NCC(=O)NCC(=O)NCC(=O)N[C@@H](CO)C(=O)NCC(=O)NCC(=O)NCC(=O)NCC(=O)N[C@@H](CO)C(=O)NCC(=O)NCC(=O)NCC(=O)NCC(=O)N[C@@H](CO)C(=O)NCC(=O)N[C@@H](CSC1CC(=O)N(CCC(=O)NCC(=O)NCCOCCOCCOCCOCCC(=O)N[C@@H](CCCCNC(=O)CC[C@H](NC(=O)CCCCCCCCCCCCCCCCCCC(=O)O)C(=O)O)C(=O)NCCOCCOCCOCCOCCC(=O)N[C@@H](CCCCNC(=O)CC[C@H](NC(=O)CCCCCCCCCCCCCCCCCCC(=O)O)C(=O)O)C(=O)O)C1=O)C(=O)O)C(C)C (some centres unmarked): “blood glucose AUC(0-96)” 7270 ± 1010% (db/db mouse; subcutaneous, 100 nmol/kg single, 0 to 96 h; relative to: baseline).
For O=C(OC(C(F)(F)F)C(F)(F)F)N1CCN(Cc2cccc(Oc3ccccc3)c2)CC1, the k3 was 0.085 min⁻¹ (PET blocking study; rhesus monkey, brain CB; 0.01 mg/kg, compound pretreatment, with: [18F]T-401 tracer).
For Cc1oncc1C(=O)Nc1ccc(C(F)(F)F)cc1, the DHO concentration was 20800 ± 2480 µM (measured: dihydroorotate; female CD-1 mice, pooled urine; oral, 30 mg/kg daily, 8-24 h after dose 10).
N#Cc1ccc2c(c1)[C@H]1CCCN(C(=O)c3ccc4[nH]cnc4c3)[C@H]1C2: “change from baseline” -3.18 mg/dL (measured: LDL; human; 240 mg once daily, day 28, adjusted mean).
For Cc1n[nH]c2ccc(-c3cc(OC[C@@H](N)Cc4ccccc4)cnc3-c3ccoc3)cc12, “log2 fold change” read -0.237 (kinase binding, competitor, MIB/MS competition, measured: CDC7; Candida albicans cell lysate; 1 µM; relative to: DMSO).
OCCCN1CC[C@@H]2C[C@H]1c1cc(-c3ccc(C(F)(F)F)cc3)ccc12: protein level “no effect” (immunocytochemistry, measured: BiP; DRG neurons, TMEM97 knock-out, mouse; dose not given).
CC(C)C[C@@H](C=O)NC(=O)[C@H](CC(C)C)NC(=O)[C@H](CC(C)C)NC(=O)OCc1ccccc1: “degradation rate constant” 0.0029 min⁻¹ (measured: Ub(G76V)-GFP; 2.5 µM).
With CCCN1CCCC[C@H]1C(=O)Nc1c(C)cccc1C the sensory block was 100 % MPE (Sprague-Dawley rat, male; sciatic nerve injection, 15 mM).
C[C@H](Oc1ccc(Br)cc1-c1ccon1)C(=O)O: “difference from placebo” 6.11% (first response peak; human, tibialis anterior muscle; 200 mg, 30 Hz, single ascending dose).
The EC50 of CC1(C)CCC(CN2CCN(c3ccc(C(=O)NS(=O)(=O)c4ccc(NCC5CCOCC5)c([N+](=O)[O-])c4)c(Oc4cnc5[nH]ccc5c4)c3)CC2)=C(c2ccc(Cl)cc2)C1 is reported as 176 nM (cell killing, flow cytometry PI exclusion; canine blood CD21+ B cells, dog 30; 24 h).
For CC(c1cc2ccccc2s1)N(O)C(N)=O (centres unmarked), the DHA level was 127000 ± 32500 pg/mL (human blood; 3 µM, with: A23187).
For N#Cc1ccn2c(-c3ccncc3)c(-c3ccc(F)cc3)nc2c1, “log2 fold change” read -0.112 (kinase binding, competitor, MIB/MS competition, measured: HST7; Candida albicans cell lysate; 100 nM; relative to: DMSO).
Under “placebo-adjusted total Abeta change”, Cc1cn(-c2ccc3n(c2=O)CCN([C@@H](C)[C@@H]2CC[C@H](c4cc(F)c(Cl)cc4C(F)(F)F)O2)C3=O)cn1 is recorded as 7.97% (human, CSF; 150 mg, at Tmax, single dose; relative to: baseline).
With O=C(O)CNC(=O)Cc1ccccc1 the sarcomere length was 1.63 µm (ventricular cardiomyocytes, C57BL/6 mouse; dose not given, 0.176 s).
CN(C(=O)n1cnc(-c2ccc[n+]([O-])c2)c1)C1CCCCC1 gave an AUC(0-t) of 791 ng·h/mL (measured: OEA; human, plasma; 20 mg single dose).
CN(C)CCC(=O)Nc1ccc([C@H]2[C@@H](F)[C@@H](F)C[C@@H](F)[C@H]2F)cc1 gave a hepatic clearance of 28 mL/min/kg (liver microsome stability; dog liver microsomes; 1 µM).
For O[C@H]1CCCN[C@@H]1CCCn1cnc2c(Cl)c(Cl)ccc21, the maximum reduction was 16.1% (ELISA, measured: Pro-C6; healthy human volunteers, serum; 200 mg, day 1, multiple ascending dose).
For O=C1Nc2cc3[nH]nc(-c4ccncc4)c3cc2CN1Cc1ccccc1, “progressive disease, best response” read 100% (RECIST v1.1; human, relapsed or refractory advanced solid tumours; intravenous, 4.8 mg/kg, pooled schedules).
For CN(C)C(=O)c1cc2cnc(Nc3ccc(N4CCNCC4)cn3)nc2n1C1CCCC1, “GSEA enrichment score” read -0.3 (RNA-seq GSEA, measured: HALLMARK_COMPLEMENT; MB002 tumour; concentration not given, in vivo; relative to: vehicle, direction not given).
CN[C@@H](C)C(=O)N[C@H]1CN(S(=O)(=O)c2cccc(S(=O)(=O)N3CC[C@H]4CC[C@@H](C(=O)NC(c5ccccc5)c5ccccc5)N4C(=O)[C@@H](NC(=O)[C@H](C)NC)C3)c2)CC[C@H]2CC[C@@H](C(=O)NC(c3ccccc3)c3ccccc3)N2C1=O — result for “maintenance monotherapy duration”: 8 months (human; 20 mg).
With COc1cc(F)c([C@@H]2CNC(=O)[C@H]2NC(=O)Nc2ccccc2)c(F)c1 the LV dP/dtmin was -5450 ± 1050 mmHg/s (terminal haemodynamics; rat, permanent coronary occlusion MI; 1 mg/kg, 1008 h, 6 weeks post-MI).
For OC(CCN1CCCCC1)(c1ccccc1)C1CC2C=CC1C2 (centres unmarked), “EEG Beta3-power Pz-O1” read 1.9 µV² (resting-state EEG; healthy elderly humans; oral, 4 mg, eyes open, LS mean).
Under “tumour growth inhibition”, C=CCn1c(=O)c2cnc(Nc3ccc(N4CCN(C)CC4)cc3)nc2n1-c1ccc2c(n1)[C@@](O)(CC)CC2 is recorded as 67.7% (JIMT-1 xenograft, NOD/SCID mouse; oral, 60 mg/kg once daily for 28 days, day 29; relative to: control).
CO[C@H]1CC[C@H](N2C(=O)CNc3ncc(-c4ccc(C(C)(C)O)nc4)nc32)CC1 — result for “pAKT change from baseline”: -56.4% (flow cytometry; stimulated monocytes, human, blood; 45 mg single dose, 5 h, mean; relative to: baseline).
Under “ear thickness difference”, C[C@@H]1C[C@H]2[C@@H]3CCC4=CC(=O)C=C[C@]4(C)[C@@]3(F)[C@@H](O)C[C@]2(C)[C@@]1(O)C(=O)CO is recorded as -0.349 (BALB/c mice, oxazolone atopic dermatitis; topical, 20 mg/ear, 480 h, day 20, unit not given; relative to: vehicle).
The ACT AUEC of C[C@@H](NC(=O)N1C(=O)[C@H](Cc2ccnc(N)c2)[C@H]1C(=O)O)C1CCCCC1 is reported as 14100 h·s (human; iv infusion, 0.6 mg/kg/h, 24 h).
For O=C(COc1ccc(Cl)cc1)NC12CC(c3nnc([C@H]4C[C@@H](OC(F)(F)F)C4)o3)(C1)C2, “ATF4 protein change” read -80.8% (healthy human, PBMC; 145 mg once daily, day 14, 4 h post-dose, median, with: sodium arsenite ex vivo; relative to: baseline).
CN1CC[C@@H](c2c(O)cc(O)c3c(=O)cc(-c4ccc(C(F)(F)F)cc4Cl)oc23)[C@@H]1CO has a nadir SPD of 10.5 cm² (human; concentration not given, 110 days therapy).
